Measurements pooled from the literature.
Each numbered part is a random draw from the data of one study; scales do not carry over between parts. Numbers after ± are the reported error.
Chain of UniProt Q9NPI1 (whole entry, unmodified, looked up): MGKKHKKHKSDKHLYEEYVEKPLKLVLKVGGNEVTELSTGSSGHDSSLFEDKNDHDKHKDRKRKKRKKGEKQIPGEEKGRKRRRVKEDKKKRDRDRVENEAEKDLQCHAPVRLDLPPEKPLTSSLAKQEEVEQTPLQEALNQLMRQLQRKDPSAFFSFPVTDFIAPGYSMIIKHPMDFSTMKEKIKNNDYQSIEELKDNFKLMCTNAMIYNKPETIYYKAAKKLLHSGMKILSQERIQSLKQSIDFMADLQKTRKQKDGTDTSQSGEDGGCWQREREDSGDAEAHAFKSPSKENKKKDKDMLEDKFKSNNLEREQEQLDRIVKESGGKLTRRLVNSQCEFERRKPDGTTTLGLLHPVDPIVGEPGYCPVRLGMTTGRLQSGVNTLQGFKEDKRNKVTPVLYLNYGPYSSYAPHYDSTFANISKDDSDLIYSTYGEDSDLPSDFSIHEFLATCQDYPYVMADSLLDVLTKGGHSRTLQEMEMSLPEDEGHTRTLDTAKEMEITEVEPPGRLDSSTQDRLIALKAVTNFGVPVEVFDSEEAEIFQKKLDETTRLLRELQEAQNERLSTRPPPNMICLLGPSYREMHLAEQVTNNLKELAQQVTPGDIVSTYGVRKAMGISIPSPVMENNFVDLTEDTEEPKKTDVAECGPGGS
Chain of UniProt P34914 (whole entry, looked up): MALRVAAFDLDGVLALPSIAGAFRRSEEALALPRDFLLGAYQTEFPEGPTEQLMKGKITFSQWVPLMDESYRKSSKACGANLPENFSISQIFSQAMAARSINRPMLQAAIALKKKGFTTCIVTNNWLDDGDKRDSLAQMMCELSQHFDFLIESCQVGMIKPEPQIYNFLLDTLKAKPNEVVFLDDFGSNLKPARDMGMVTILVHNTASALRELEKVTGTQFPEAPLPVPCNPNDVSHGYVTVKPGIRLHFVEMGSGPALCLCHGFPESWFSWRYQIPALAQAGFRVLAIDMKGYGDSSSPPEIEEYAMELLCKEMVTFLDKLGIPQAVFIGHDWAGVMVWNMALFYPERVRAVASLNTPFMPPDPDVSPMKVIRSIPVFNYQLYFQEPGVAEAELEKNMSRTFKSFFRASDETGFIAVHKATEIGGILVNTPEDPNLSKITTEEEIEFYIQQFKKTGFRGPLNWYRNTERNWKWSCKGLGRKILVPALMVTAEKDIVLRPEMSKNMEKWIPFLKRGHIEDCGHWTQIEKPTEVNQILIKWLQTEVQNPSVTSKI

Set 1
SMILES: Cc1cc(OCc2nnc(SC3CCCC3)n2-c2cccnc2)ccc1-c1ccc(S(C)(=O)=O)cc1
cell line | GI50
HCT-15 | 1240 nM
HCC 2998 | 1030 nM
SK-MEL-2 | 1700 nM
M14 | 1440 nM

Single results of other studies
Compound | tested on | assay | system | setting | measurement | result
C#Cc1cccc(Nc2ncnc3cc(OCCOC)c(OCCOC)cc23)c1 | HepG2 | MTT |  | 0.4 µg/mL, maintenance medium, 2% serum | viability | 69.8%
Cc1ccc(S(=O)(=O)Nc2c(N3CCC(NC(=O)Nc4ccc(F)c(C(F)(F)F)c4)CC3)c(=O)c2=O)cc1 | Bifunctional epoxide hydrolase 2 (Ephx2, Mus musculus, UniProt P34914) |  |  |  | IC50 | 4420 ± 541 nM
N#Cc1ccc(-c2csc(CNC(=O)C34CC(CN(C(=O)COCCF)C3)C4)n2)cc1 |  |  | rat, Sprague Dawley, male, liver microsomes | 0.5 µM | CLint scaled | < 5.6 mL/min/kg
CC[C@@H]1C(=O)N(C)c2cnc(Nc3ccc(C(=O)NC4CCN(C)CC4)cc3OC)nc2N1C1CCCC1 | Bromodomain-containing protein 7 (BRD7, Homo sapiens, UniProt Q9NPI1) | thermal stabilisation, thermal shift |  | 10 µM | ΔTm | 1.84 ± 0.18 °C

A few entries again (single results of other studies):
Compound | tested on | assay | system | setting | measurement | result
N#Cc1ccc(-c2csc(CNC(=O)C34CC(CN(C(=O)COCCF)C3)C4)n2)cc1 |  |  | rat, Sprague Dawley, male, liver microsomes | 0.5 µM | CLint scaled | < 5.6 mL/min/kg
